Assay results collected from several papers.
Target: Receptor-interacting serine/threonine-protein kinase 1 (RIPK1, Homo sapiens, UniProt Q13546)

CCN1CCN(Cc2ccc(C(=O)Nc3ccc(C)c(NCc4cnc5[nH]ccc5c4OC)c3)cc2C(F)(F)F)CC1 — remaining binding (binding, competition with immobilised ligand; 1 µM): 28%
CNC(=O)C1CCN(c2cc(C)c(F)cc2NC(=O)c2ccc(-c3cc(O)ccc3C)c(C)c2)CC1 — remaining binding (binding, competition with immobilised ligand; 1 µM): 100%
C=CC(=O)N1CCCC(n2c(=O)c3ncccc3n(Cc3ccc(Oc4ccccc4)cc3)c2=O)C1 (stereo not shown) — remaining binding (cell-free assay, competition with immobilised ligand; 1 µM): 93%
CCN1CCN(Cc2ccc(NC(=O)c3ccc(C)c(NC(=O)c4cncc(-c5cccs5)c4)c3)cc2C(F)(F)F)CC1 — remaining binding (binding, competition with immobilised ligand; 1 µM): 37%
CN1CC[C@@H](COc2cnc(C#N)cc2-c2ccn3nc(NC(=O)C4CC4)cc3c2)C1 — inhibition (enzyme activity, inhibitor; 1 µM): -8%
O=C(Cc1ccc(OCc2ccccc2)cc1)NC1(C(=O)O)CCN(C(=O)c2ccc(-c3cccc(Cl)c3)cc2)CC1 — activity vs control (enzyme activity, inhibitor; 10 µM): 125%
Cc1ccc(-c2c(/C=C(\C#N)C(=O)NC(C)C)n(CCCO)c3ncnc(N)c23)cc1 — remaining binding (cell-free assay, competition with immobilised ligand; 1 µM): 100%
CNC1C[S+]2CC[S+]3CC[S+](C1)[Ru-4]321([N]=C=S)[n]2c3ccc(OC)cc3c3c4c(c5cc(F)c[n+]1c5c32)C(=O)NC4=O (stereo not shown) — remaining binding (KinomeScan; 0.1 µM; relative to: untreated): 96%
COc1cc(Nc2nccc(-c3cnn4nc(OC)ccc34)n2)cc(C(F)(F)F)c1 — remaining binding (binding, competition with immobilised ligand; 1 µM): 96%
CC(C)=CC1OC(C)(C)C2C=C3C(=O)C(Cl)=CC(O)C3C3C(O)C4OC4C(=O)C132 (stereo not shown) — remaining binding (cell-free assay, competition with immobilised ligand; 10 µM): 83%
Cc1cnc2nc1Nc1cccc(c1)COC/C=C/COCc1cc(ccc1OCCN1CCOCC1)N2 — remaining binding (binding, competition with immobilised ligand; 0.1 µM): 87%
CNC(=O)C[C@H](Cc1ccc(C#N)cc1)NC(=O)c1cc(-c2ccc(CN[C@H](C)c3ccc(C)cc3)o2)ccc1Cl — activity vs control (enzyme activity, inhibitor; 1 µM): 93%
Nc1ncc2c(n1)-c1c([nH]c3ccc(C4=CCOCC4)cc13)CCC2 — remaining binding (binding, competition with immobilised ligand; 1 µM): 89%
COc1cc(Nc2nc(C)cc(-c3cnn4nc(OC)ccc34)n2)cc(C(F)(F)F)c1 — remaining binding (binding, competition with immobilised ligand; 1 µM): 93%
COc1c(Cl)cccc1Nc1c(-c2ccncc2C#C[C@@]2(C)CCCN2C(=O)/C=C/CN(C)C)[nH]c2c1C(=O)NCC2 — remaining binding (binding, competition with immobilised ligand; 3 µM): 100%
C=CC(=O)Nc1cc(-c2nn(C3CCN(CCNC(=O)[C@H](C)CCC45CC6CC(CC(C6)C4)C5)CC3)c3ncnc(N)c23)ccc1Oc1ccccc1 — inhibition (inhibitor, KiNativ profiling; biochemical; 2 µM): 11.7%
C=CC(=O)N1CCc2ccc(-n3c(=O)ccc4cnc5ccc(-c6cnn(C)c6)cc5c43)cc21 — remaining binding (KINOMEscan; 1 µM; relative to: DMSO control): 100%
O=C(Nc1ccc(Oc2ncnc3[nH]cc(-c4ccccc4)c23)c(F)c1)c1c2n(n(-c3cc(F)ccc3F)c1=O)CCCC2 — inhibition (enzyme activity, inhibitor; 0.5 µM): 1%
CCn1cc(C(=O)O)c(=O)c2c(N)c(F)c(NC3CCCCC3)cc21 — inhibition (kinase activity; 0.1 µM, with: ATP at Km): 4.7%

Repeated from above:
CNC(=O)C[C@H](Cc1ccc(C#N)cc1)NC(=O)c1cc(-c2ccc(CN[C@H](C)c3ccc(C)cc3)o2)ccc1Cl — activity vs control (enzyme activity, inhibitor; 1 µM): 93%
Nc1ncc2c(n1)-c1c([nH]c3ccc(C4=CCOCC4)cc13)CCC2 — remaining binding (binding, competition with immobilised ligand; 1 µM): 89%
COc1cc(Nc2nc(C)cc(-c3cnn4nc(OC)ccc34)n2)cc(C(F)(F)F)c1 — remaining binding (binding, competition with immobilised ligand; 1 µM): 93%
